Published values pooled from the literature.
Compare with care: the assays were run in different laboratories. Numbers after ± are the reported error.

Molecule | test | test system | setting | plasma concentration
CC(C)(O/N=C(\C(=O)N[C@H]1CN2CC(C(=O)NCCN3C(=O)c4cc(O)c(O)cc4C3=O)=C(C(=O)O)N2C1=O)c1nc(N)sc1Cl)C(=O)O | – | CD-1 mouse, plasma | subcutaneous, 50 mg/kg, 1 h | 3140 ng/mL
CCn1nc(C2CC2)cc1Nc1nc(C(=O)NCCCCCc2cccc3c2CN(C2CCC(=O)NC2=O)C3=O)nc2[nH]c3cc(-c4c(C)noc4C)c(OC)cc3c12 (stereo not drawn) | – | female SCID C.B-17 mouse, plasma | intravenous, 5 mg/kg single, 3 h | 58 ng/mL
O=C(OC(C(F)(F)F)C(F)(F)F)N1CCN(Cc2ccc(C(F)(F)F)cc2N2CCCC2)CC1 | – | wild-type mouse, plasma | oral in chow, 350 mg/kg chow, 13 days, P31 | 297 ± 74 ng/mL
COc1cc2c(cc1OC)CN(CCc1ccc(NC(=O)c3cc(OC)c(OC)cc3NC(=O)c3cnc4ccccc4c3)cc1)CC2 | – | Wistar Unilever rat, plasma | intravenous, 5 mg/kg, 3 h | 807 ng/mL
Cc1ccc([C@H]2C[C@@H]2COc2cc(NCc3nnc(C)s3)nc(C)n2)nc1 | – | rat (MK-801-induced hyperlocomotion), plasma | oral, 0.75 mg/kg, 2.5 h | 50 nM
N=C(N)c1ccc(CNC(=O)[C@@H]2CCN2C(=O)[C@H](NCC(=O)O)C2CCCCC2)cc1 | – | Wistar rats male, plasma | intravenous, 0.3 mg/kg, 15 min, 10 min after TF | 525 ng/mL
CNC(=O)c1ccccc1Sc1ccc2c(/C=C/c3ccccn3)n[nH]c2c1 | – | New Zealand White rabbit, plasma | suprachoroidal, 1 mg/eye, 6 h | 0.155 ng/mL
OC[C@H]1O[C@@H](c2ccc(Cl)c(Cc3ccc(O[C@H]4CCOC4)cc3)c2)[C@H](O)[C@@H](O)[C@@H]1O | HPLC-MS/MS | healthy Chinese volunteers, fasting | oral, 10 mg tablet, 2.25 h | 148 ± 28.2 ng/mL
COc1cc2c(cc1OC)CN(CCc1ccc(NC(=O)c3cc(OC)c(OC)cc3NC(=O)c3cnc4ccccc4c3)cc1)CC2 | – | patients, plasma | intravenous, 150 mg, 48 h post-dose, cycle 1, no vinorelbine | 66 ng/mL
CS(=O)(=O)n1cc2c(n1)CN([C@H]1CO[C@H](c3cc(F)ccc3F)[C@@H](N)C1)C2 | – | healthy Japanese men, fasted, plasma | oral, 10 mg single dose, 168 h | 8.1 nM
polysorbate 80 | – | human, plasma | concentration not given, 1 h after loading dose, day 1 | 5300 ng/mL
O=C(c1ccc(-n2nc(C(F)(F)F)c3c2CCCC3)cc1)N1CCCC1 | – | rat | dose not given, 30 min | 7 to 25 ng/mL

A few entries again:
Molecule | test | test system | setting | plasma concentration
CCn1nc(C2CC2)cc1Nc1nc(C(=O)NCCCCCc2cccc3c2CN(C2CCC(=O)NC2=O)C3=O)nc2[nH]c3cc(-c4c(C)noc4C)c(OC)cc3c12 (stereo not drawn) | – | female SCID C.B-17 mouse, plasma | intravenous, 5 mg/kg single, 3 h | 58 ng/mL
